Literature values, collected from citations in different studies.
± gives the spread as reported. Converted amounts (≈) assume the structure as drawn.
lasR: Transcriptional activator protein LasR (lasR, Pseudomonas aeruginosa, UniProt P25084)
Chain of UniProt P25084 (whole entry, looked up): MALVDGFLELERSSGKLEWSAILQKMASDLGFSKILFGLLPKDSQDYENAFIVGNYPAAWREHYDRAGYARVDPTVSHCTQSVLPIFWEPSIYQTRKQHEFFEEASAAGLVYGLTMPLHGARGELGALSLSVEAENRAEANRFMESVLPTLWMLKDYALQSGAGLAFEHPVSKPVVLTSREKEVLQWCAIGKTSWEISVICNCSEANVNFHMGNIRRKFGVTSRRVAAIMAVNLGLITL
Chain of UniProt P37353 (whole entry, looked up): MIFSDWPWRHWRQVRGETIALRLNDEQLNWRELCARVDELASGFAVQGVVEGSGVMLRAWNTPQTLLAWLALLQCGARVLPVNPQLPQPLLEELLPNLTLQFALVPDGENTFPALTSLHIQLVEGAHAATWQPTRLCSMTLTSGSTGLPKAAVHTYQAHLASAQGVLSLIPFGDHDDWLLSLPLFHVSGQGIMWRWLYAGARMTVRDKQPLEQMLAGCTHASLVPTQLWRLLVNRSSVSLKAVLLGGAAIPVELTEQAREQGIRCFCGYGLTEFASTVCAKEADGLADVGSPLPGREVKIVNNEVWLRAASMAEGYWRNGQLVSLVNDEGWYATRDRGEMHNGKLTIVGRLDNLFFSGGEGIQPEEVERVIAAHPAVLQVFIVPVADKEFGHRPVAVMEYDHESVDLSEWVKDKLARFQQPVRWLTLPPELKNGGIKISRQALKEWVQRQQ
Chain of UniProt P06276 (whole entry, looked up): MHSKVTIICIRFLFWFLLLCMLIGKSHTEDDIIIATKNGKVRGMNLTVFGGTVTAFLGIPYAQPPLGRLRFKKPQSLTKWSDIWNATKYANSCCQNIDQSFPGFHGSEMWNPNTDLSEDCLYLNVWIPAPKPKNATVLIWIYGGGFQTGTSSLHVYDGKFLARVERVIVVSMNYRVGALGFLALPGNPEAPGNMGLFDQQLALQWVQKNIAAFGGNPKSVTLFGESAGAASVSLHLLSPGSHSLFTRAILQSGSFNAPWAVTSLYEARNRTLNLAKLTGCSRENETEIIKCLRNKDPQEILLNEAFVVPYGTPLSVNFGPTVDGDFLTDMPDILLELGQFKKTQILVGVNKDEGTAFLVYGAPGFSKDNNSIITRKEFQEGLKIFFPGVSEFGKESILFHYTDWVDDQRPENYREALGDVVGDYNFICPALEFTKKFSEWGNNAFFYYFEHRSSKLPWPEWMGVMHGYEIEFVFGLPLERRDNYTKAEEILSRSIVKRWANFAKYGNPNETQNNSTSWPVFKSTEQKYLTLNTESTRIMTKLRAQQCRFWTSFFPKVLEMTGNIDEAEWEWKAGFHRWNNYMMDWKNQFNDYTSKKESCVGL
Chain of UniProt P53341 (whole entry, looked up): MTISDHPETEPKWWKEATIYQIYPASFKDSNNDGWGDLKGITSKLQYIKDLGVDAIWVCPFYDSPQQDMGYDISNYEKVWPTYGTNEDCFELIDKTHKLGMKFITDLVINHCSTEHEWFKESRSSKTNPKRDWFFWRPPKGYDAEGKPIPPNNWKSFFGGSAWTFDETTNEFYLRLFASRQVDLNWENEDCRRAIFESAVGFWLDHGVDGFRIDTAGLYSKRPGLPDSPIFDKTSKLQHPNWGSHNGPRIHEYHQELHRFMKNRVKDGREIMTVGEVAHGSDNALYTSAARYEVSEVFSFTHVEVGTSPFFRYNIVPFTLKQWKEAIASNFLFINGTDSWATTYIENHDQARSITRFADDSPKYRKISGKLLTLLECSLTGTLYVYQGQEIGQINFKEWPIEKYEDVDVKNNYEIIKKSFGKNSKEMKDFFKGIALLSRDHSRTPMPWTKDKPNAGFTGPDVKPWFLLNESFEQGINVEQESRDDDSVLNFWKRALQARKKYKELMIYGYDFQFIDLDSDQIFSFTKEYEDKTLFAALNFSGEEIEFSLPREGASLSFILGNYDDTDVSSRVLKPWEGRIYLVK
Chain of UniProt P30542 (whole entry, looked up): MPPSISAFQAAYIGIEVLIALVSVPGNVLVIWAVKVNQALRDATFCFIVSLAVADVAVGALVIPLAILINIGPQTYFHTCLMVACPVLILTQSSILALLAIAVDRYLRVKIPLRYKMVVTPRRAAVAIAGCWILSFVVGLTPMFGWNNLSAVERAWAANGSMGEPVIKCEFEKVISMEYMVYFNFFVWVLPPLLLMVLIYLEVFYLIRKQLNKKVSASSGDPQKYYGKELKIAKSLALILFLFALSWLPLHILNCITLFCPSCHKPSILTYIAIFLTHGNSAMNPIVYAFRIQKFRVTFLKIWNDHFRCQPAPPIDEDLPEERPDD

Compound | tested on | test | test system | setting | how to read | endpoint | result
OC1(c2ccc(Cl)cc2)c2ccccc2C2=NCCN21 (racemic) | serotonin transporter |  |  |  |  | Ki | 103 nM
O=C(NCc1cc(Br)cc(Br)c1OC(=O)c1ccccc1[N+](=O)[O-])c1ccccc1Cl | lasR | reporter gene, agonist, rsaL-yfp reporter | PAO-MW1 |  |  | EC50 | 14 nM
COC(=O)C1C(OC(=O)c2ccccc2)CC2CCC1N2S(=O)(=O)N=C=O (stereo not drawn) | dopamine transporter | binding |  |  |  | Ki | 120 nM
O=[N+]([O-])c1cccc(/C(Cn2nnc3ccccc32)=N\N=C\c2cc(Cl)cc(Cl)c2O)c1 | Alpha-glucosidase MAL12 (MAL12, Saccharomyces cerevisiae S288c, UniProt P53341) |  |  |  | inhibition | IC50 | 1100 ± 50 nM
OC[C@@]12C[C@@H]1[C@@H](n1cnc3c(N[C@H](C4CCC4)C4CC4)nc(Cl)nc31)[C@H](O)[C@@H]2O | Adenosine receptor A1 (ADORA1, Homo sapiens, UniProt P30542) | binding |  | together with: [3H]R-PIA |  | Ki | 298 ± 4 nM
COC(=O)C1C(OC(=O)c2ccccc2)CC2CCC1N2S(=O)(=O)C(F)(F)F (stereo not drawn) | dopamine transporter | binding |  |  |  | Ki | 330 nM
O=C(CCc1ccc(C(F)(F)F)cc1)N[C@H]1CCOC1=O | lasR | reporter gene, agonist, lasI-lacZ reporter |  |  |  | EC50 | 10000 nM
COc1ccc(/C=C/C(=O)NCCc2c[nH]c3ccccc23)cc1OC | Cholinesterase (BCHE, Homo sapiens, UniProt P06276) |  |  |  |  | IC50 | > 100000 nM
CC(C)[C@H](NC(=O)[C@H](Cc1ccc(O)cc1)NC(=O)[C@H](CS)NC(=O)[C@@H](NC(=O)[C@H](CCCNC(=N)N)NC(=O)[C@H](Cc1ccccc1)NC(=O)[C@H](CS)NC(=O)[C@H](Cc1c[nH]c2ccccc12)NC(=O)[C@@H](N)CCCNC(=N)N)C(C)C)C(=O)NCC(=O)N[C@@H](Cc1ccccc1)C(=O)N[C@@H](CS)C(=O)N[C@@H](Cc1ccc(O)cc1)C(=O)N[C@@H](Cc1c[nH]c2ccccc12)C(=O)N[C@@H](CCCCN)C(=O)N[C@@H](CS)C(=O)N[C@@H](CCCNC(=N)N)C(=O)O | Staphylococcus aureus |  |  |  |  | MIC | > 128 µM
Nc1ncnc2c1ncn2[C@@H]1O[C@H](COS(=O)(=O)NC(=O)CCC(=O)c2ccccc2C(=O)O)[C@@H](O)[C@H]1O | 2-succinylbenzoate--CoA ligase (menE, Escherichia coli, UniProt P37353) | enzyme activity |  |  |  | IC50 | 25 nM
CC[C@H](C)[C@H](NC(=O)CNC(=O)[C@H](CCC(N)=O)NC(=O)[C@@H](NC(=O)[C@H](C)NC(=O)[C@H](CCC(N)=O)NC(=O)[C@H](C)NC(=O)[C@@H](NC(=O)[C@H](C)NC(=O)[C@H](CCCNC(=N)N)NC(=O)[C@H](Cc1ccccc1)NC(=O)[C@H](C)NC(=O)[C@H](CC(N)=O)NC(=O)[C@H](CCCCN)NC(=O)CNC(=O)[C@H](C)NC(=O)[C@H](CCCCN)NC(=O)[C@H](CCC(=O)O)NC(=O)[C@@H](NC(=O)[C@H](CCCCN)NC(=O)[C@H](CCCCN)NC(=O)CN)[C@@H](C)CC)C(C)C)C(C)C)C(=O)NCC(=O)N[C@@H](Cc1ccccc1)C(=O)N[C@@H](C)C(=O)N[C@@H](CCCNC(=N)N)C(=O)N[C@@H](C)C(=O)N[C@@H](CC(C)C)C(=O)NCC(=O)N[C@H](C(=O)N[C@@H](C)C(=O)N[C@H](C(=O)N[C@@H](CC(=O)O)C(=O)O)C(C)C)[C@@H](C)CC | Staphylococcus aureus |  |  |  |  | MIC | 32 µM (≈ 107 µg/mL)
O=C1NC(=O)C(=Cc2ccc(OCc3cn(Cc4ccccc4Cl)nn3)cc2)C(=O)N1 | tyrosinase | inhibitor |  |  |  | IC50 | 29900 nM

Excerpt of the above:
Compound | tested on | test | test system | setting | how to read | endpoint | result
CC(C)[C@H](NC(=O)[C@H](Cc1ccc(O)cc1)NC(=O)[C@H](CS)NC(=O)[C@@H](NC(=O)[C@H](CCCNC(=N)N)NC(=O)[C@H](Cc1ccccc1)NC(=O)[C@H](CS)NC(=O)[C@H](Cc1c[nH]c2ccccc12)NC(=O)[C@@H](N)CCCNC(=N)N)C(C)C)C(=O)NCC(=O)N[C@@H](Cc1ccccc1)C(=O)N[C@@H](CS)C(=O)N[C@@H](Cc1ccc(O)cc1)C(=O)N[C@@H](Cc1c[nH]c2ccccc12)C(=O)N[C@@H](CCCCN)C(=O)N[C@@H](CS)C(=O)N[C@@H](CCCNC(=N)N)C(=O)O | Staphylococcus aureus |  |  |  |  | MIC | > 128 µM
COC(=O)C1C(OC(=O)c2ccccc2)CC2CCC1N2S(=O)(=O)N=C=O (stereo not drawn) | dopamine transporter | binding |  |  |  | Ki | 120 nM
